{"data": "Experimental data collected from several papers", "note": "Each line is one published result; not all experiments were run side by side. ± marks the error that the study gave."}
{"Compound": "C=CC(=O)N1[C@@H](c2ccc3c(c2)OCO3)c2[nH]c3ccccc3c2C[C@H]1C(=O)N1CCN(C)CC1", "target or system": "human cyclin E1 wild type-3xFLAG:CDK2", "assay": "co-IP with TMT proteomics, measured: HSPA5", "setting": "concentration not given, P11021", "scale": "baseline: wild type DMSO", "endpoint": "relative co-enrichment", "result": "94%"}
{"Compound": "Cc1ncsc1-c1ccc(C(C)NC(=O)C2CC(O)CN2C(=O)C(NC(=O)CCCCCCCCCCN2CCCC(Nc3ncc(Cl)c(Nc4ccccc4S(=O)(=O)C(C)C)n3)C2)C(C)(C)C)cc1 (stereo not drawn)", "target or system": "22Rv1", "assay": "RNA-seq, measured: RNF144B mRNA", "setting": "concentration not given", "scale": "baseline: DMSO", "endpoint": "log2 fold change", "result": -1.07}
{"Compound": "Nc1ncc(-c2cc(-c3cnn(CC(F)(F)F)c3)ncc2F)nc1C(=O)NC1CNCC(F)C1 (stereo not drawn)", "target or system": "MAP3K15", "assay": "KINOMEscan", "setting": "1 µM", "scale": "baseline: DMSO control", "endpoint": "remaining binding", "result": "47%"}
{"Compound": "COC1CN([C@H]2CC[C@H]([C@@]3(C)Oc4c(Cl)cc(C(=O)NCc5c(SC)cc(C)[nH]c5=O)c(C)c4O3)CC2)C1", "assay": "RNA-seq, measured: JHY", "test system": "human cancer patients, whole blood", "setting": "dose not given, 24 h, PRC2 target gene", "scale": "baseline: pretreatment sample", "endpoint": "log2 fold change", "result": 1.6}
{"Compound": "O=C(N/N=C/c1cc[n+](CC2CC2)c2ccccc12)c1cccc(C(=O)N/N=C/c2cc[n+](CC3CC3)c3ccccc23)c1", "target or system": "telomeric G4 DNA hybrid-2", "assay": "FRET melting", "setting": "1 µM, DNA 0.2 µM, with: duplex DNA competitor 10 µM", "endpoint": "ΔTm", "result": "13.5 ± 0.4 °C"}
{"Compound": "CC(C)(C)c1cc(-c2ccc3cccnc3n2)nc(-c2ccc3cccnc3n2)c1.COc1ccncc1.[Cl-].[Cl-].[Ru+2].c1ccc2cc3nc4c5cccnc5c5ncccc5c4nc3cc2c1", "target or system": "B16-F10", "assay": "resazurin", "setting": "with: light 523 nm, 20 mW, 100 J/cm2", "endpoint": "EC50", "result": "1470 nM"}
{"Compound": "O=C(N/N=C/c1cc[n+](Cc2ccccc2)c2ccccc12)c1cccc(C(=O)N/N=C/c2cc[n+](Cc3ccccc3)c3ccccc23)n1", "target or system": "telomeric G4 DNA hybrid-2", "assay": "FRET melting", "setting": "1 µM, DNA 0.2 µM", "endpoint": "ΔTm", "result": "25.1 ± 0.4 °C"}
{"Compound": "C=CC(=O)Nc1cccc(Cn2ncc3cnc(Nc4cnn(CCOC)c4)nc32)c1", "target or system": "WNK3 human", "assay": "binding, KINOMEscan", "setting": "100 nM", "scale": "lower = stronger binding", "endpoint": "percent of control", "result": "96%"}
{"Compound": "O=C(N/N=C/c1cc[n+](Cc2ccccc2)c2ccccc12)c1cncc(C(=O)N/N=C/c2cc[n+](Cc3ccccc3)c3ccccc23)n1", "target or system": "telomeric G4 DNA hybrid-2", "assay": "FRET melting", "setting": "1 µM, DNA 0.2 µM, with: duplex DNA competitor 10 µM", "endpoint": "ΔTm", "result": "21.8 ± 0.6 °C"}
{"Compound": "CC(=O)[O-].O.O.O.O.[Co+2].[O-]c1ccc(Br)cc1C=NCCN1CCOCC1", "assay": "hydroxyl radical scavenging", "setting": "120 µM", "endpoint": "inhibition", "result": "31.2%"}
{"Compound": "N=C(N)NCCC[C@@H]1NC(=O)[C@H](CCCNC(=N)N)NC(=O)[C@@H](CCCNC(=N)N)NC(=O)[C@@H](CCCNC(=N)N)NC(=O)[C@@H](C(c2ccccc2)c2ccccc2)NC(=O)[C@H](Cc2c[nH]c3ccccc23)NC(=O)[C@@H](C(c2ccccc2)c2ccccc2)NC1=O", "target or system": "Blastomyces dermatitidis", "test system": "BD-1", "endpoint": "MIC", "result": "1 µg/mL"}
{"Compound": "C[n+]1cccc2cc(/C=N/NC(=O)c3cccc(C(=O)N/N=C/c4ccc5c(ccc[n+]5C)c4)n3)ccc21", "target or system": "telomeric G4 DNA hybrid-2", "assay": "FRET melting", "setting": "1 µM, DNA 0.2 µM, with: duplex DNA competitor 10 µM", "endpoint": "ΔTm", "result": "20.3 ± 1.8 °C"}
{"Compound": "CNS(=O)(=O)Nc1nccc(Cc2c(C)c3ccc(Oc4ncccc4F)cc3oc2=O)c1F", "target or system": "SW48", "assay": "cell viability", "setting": "7 days", "endpoint": "IC50", "result": "2.19 nM"}
{"Compound": "C[n+]1ccc(/C=N/NC(=O)c2cc(C(=O)N/N=C/c3cc[n+](C)c4ccccc34)ncn2)c2ccccc21", "target or system": "telomeric G4 DNA hybrid-2", "assay": "FRET melting", "setting": "1 µM, DNA 0.2 µM, with: duplex DNA competitor 10 µM", "endpoint": "ΔTm", "result": "4.7 ± 0.4 °C"}
{"Compound": "CN1CCCNC(=O)c2cccc(c2)C(=O)NCCCN(C)CCCNc2cccc3c2C(=O)c2cccc(c2C3=O)NCCC1", "target or system": "SAS", "assay": "RNA-Seq, measured: RIDA mRNA", "setting": "1 µM, 6 h", "scale": "baseline: untreated cells", "endpoint": "log2 fold change", "result": 0.688}
